Measured values pooled from the literature.
Compare with care: the assays were run in different laboratories. “And” joins repeats or separate records; there may be more than shown. Numbers after ± are the reported error.
rep main protease: Replicase polyprotein 1ab, main protease (rep, Severe acute respiratory syndrome coronavirus 2, UniProt P0DTD1)
rep papain-like protease: Replicase polyprotein 1ab, papain-like protease (rep, Severe acute respiratory syndrome coronavirus 2, UniProt P0DTD1)

Compound	target	test	test system	conditions	endpoint	result
O=C(c1ccc(Br)cc1)N1CCC(c2ccn3ncc(C(=O)N4CCCCC4)c3c2)CC1	Replicase polyprotein 1ab, nsp3 macrodomain (rep, Severe acute respiratory syndrome coronavirus 2, UniProt P0DTD1)	enzyme activity, inhibitor, ADPr-Glo	–	concentration not given, SARS-CoV-2	ADP-ribosylhydrolase inhibition	inhibited
O=C(NC1CCN(c2ncnc3[nH]cnc23)CC1)c1cccc(NS(=O)(=O)c2ccc(C(F)(F)F)cc2)c1	Replicase polyprotein 1ab, nsp14 with nsp10 (rep, Severe acute respiratory syndrome coronavirus 2, UniProt P0DTD1)	exonuclease activity	SARS-CoV-2	50 µM	inhibition	11.6%
CNC(=O)CC1CN(C(=O)c2ccc(C(F)(F)F)cn2)CCN1C(=O)c1cccnn1 (centres unmarked)	rep main protease	3CL protease activity	–	0.04576 µM	remaining activity	98.4%
O=C(NCCc1cccc(F)c1)[C@@H](c1cncnc1)N(C(=O)[C@@H](F)Cl)c1ccc(S(F)(F)(F)(F)F)cc1	rep main protease	enzyme activity, inhibitor	–	–	kinact	0.0011 s⁻¹
Cn1cc(C(=O)Nc2ccccn2)c2ccccc21	rep main protease	protease activity, SAMDI-MS	–	–	Hill slope	1.28
CC1(C)C2CCC1(C)C(n1[se]c3ccccc3c1=O)C2 (centres unmarked)	rep main protease	enzyme activity, inhibitor	–	40 µM	inhibition	99.1%
CC(=O)Nc1ccc(-c2cnc(N3C(=O)C(Cl)C3c3cc4ccccc4nc3Cl)s2)cc1 (centres unmarked)	rep papain-like protease	thermal stability, DSF	–	–	ΔTm	3 °C
CC(C)CC(NC(=O)OCc1ccccc1)C(=O)NC(CC1CCNC1=O)C(=O)C(=O)NC1CC1 (centres unmarked)	rep main protease	thermal stability, DSF	–	–	ΔTm	11.1 °C
Cc1ccc(OCCN(C)C)cc1C(=O)N[C@H](C)c1cc(-c2cccnc2N2CCCC2)nc2ccccc12	rep papain-like protease	reporter gene, cell-based	–	–	GFP/mCherry signal ratio	76.2 and 0 and 62 and 103 and 85
CC(C)(C)[C@@H]1NC(=O)O[C@@H]2CCC[C@H]2OC/C=C/C(F)(F)c2nc3ccccc3nc2O[C@@H]2C[C@@H](C(=O)N[C@]3(C(=O)NS(=O)(=O)C4(C)CC4)C[C@H]3C(F)F)N(C2)C1=O	rep papain-like protease	protease activity, inhibitor, fluorescence	–	20 µM, 25 °C	remaining activity	no inhibition
CN=c1nc(-c2ccccc2)n(-c2ccccc2)s1	Replicase polyprotein 1ab, nsp14 N7-methyltransferase (rep, Severe acute respiratory syndrome coronavirus 2, UniProt P0DTD1)	N7-methyltransferase activity, inhibitor, Py-FLINT	–	–	Hill slope	1.97 ± 0.39
C[C@](C(=O)NC1CCOCC1)(c1cncnc1)N(C(=O)[C@H](F)Cl)c1ccc(OC(F)(F)Cl)cc1	rep main protease	enzyme activity, inhibitor	–	41 nM	inhibition	89.3%
CC[C@@H](C)[C@H](NC(=O)c1ccccc1[Se][Se]c1ccccc1C(=O)N[C@H](C(=O)OC)[C@H](C)CC)C(=O)OC	rep main protease	enzyme activity, inhibitor	–	40 µM, mean of repeats	inhibition	102%
CC(C)CC(C(=O)N1CC2(CC1C#N)C(=O)Nc1ccccc12)N(C)C(=O)c1cc2c(F)cc(F)c(F)c2[nH]1 (centres unmarked)	rep main protease	enzyme activity	–	concentration not given	remaining activity	0.18%

A few entries again:
Compound	target	test	test system	conditions	endpoint	result
CC[C@@H](C)[C@H](NC(=O)c1ccccc1[Se][Se]c1ccccc1C(=O)N[C@H](C(=O)OC)[C@H](C)CC)C(=O)OC	rep main protease	enzyme activity, inhibitor	–	40 µM, mean of repeats	inhibition	102%
